# Assay results pooled from the literature.
# Compare with care: the assays were run in different laboratories. Several values in a cell are separate wells, animals, samples, runs or records. ± gives the spread as reported.
# TOP2A: DNA topoisomerase 2-alpha (TOP2A, Homo sapiens, UniProt P11388)
# Sequence of UniProt P11388 (whole entry, looked up): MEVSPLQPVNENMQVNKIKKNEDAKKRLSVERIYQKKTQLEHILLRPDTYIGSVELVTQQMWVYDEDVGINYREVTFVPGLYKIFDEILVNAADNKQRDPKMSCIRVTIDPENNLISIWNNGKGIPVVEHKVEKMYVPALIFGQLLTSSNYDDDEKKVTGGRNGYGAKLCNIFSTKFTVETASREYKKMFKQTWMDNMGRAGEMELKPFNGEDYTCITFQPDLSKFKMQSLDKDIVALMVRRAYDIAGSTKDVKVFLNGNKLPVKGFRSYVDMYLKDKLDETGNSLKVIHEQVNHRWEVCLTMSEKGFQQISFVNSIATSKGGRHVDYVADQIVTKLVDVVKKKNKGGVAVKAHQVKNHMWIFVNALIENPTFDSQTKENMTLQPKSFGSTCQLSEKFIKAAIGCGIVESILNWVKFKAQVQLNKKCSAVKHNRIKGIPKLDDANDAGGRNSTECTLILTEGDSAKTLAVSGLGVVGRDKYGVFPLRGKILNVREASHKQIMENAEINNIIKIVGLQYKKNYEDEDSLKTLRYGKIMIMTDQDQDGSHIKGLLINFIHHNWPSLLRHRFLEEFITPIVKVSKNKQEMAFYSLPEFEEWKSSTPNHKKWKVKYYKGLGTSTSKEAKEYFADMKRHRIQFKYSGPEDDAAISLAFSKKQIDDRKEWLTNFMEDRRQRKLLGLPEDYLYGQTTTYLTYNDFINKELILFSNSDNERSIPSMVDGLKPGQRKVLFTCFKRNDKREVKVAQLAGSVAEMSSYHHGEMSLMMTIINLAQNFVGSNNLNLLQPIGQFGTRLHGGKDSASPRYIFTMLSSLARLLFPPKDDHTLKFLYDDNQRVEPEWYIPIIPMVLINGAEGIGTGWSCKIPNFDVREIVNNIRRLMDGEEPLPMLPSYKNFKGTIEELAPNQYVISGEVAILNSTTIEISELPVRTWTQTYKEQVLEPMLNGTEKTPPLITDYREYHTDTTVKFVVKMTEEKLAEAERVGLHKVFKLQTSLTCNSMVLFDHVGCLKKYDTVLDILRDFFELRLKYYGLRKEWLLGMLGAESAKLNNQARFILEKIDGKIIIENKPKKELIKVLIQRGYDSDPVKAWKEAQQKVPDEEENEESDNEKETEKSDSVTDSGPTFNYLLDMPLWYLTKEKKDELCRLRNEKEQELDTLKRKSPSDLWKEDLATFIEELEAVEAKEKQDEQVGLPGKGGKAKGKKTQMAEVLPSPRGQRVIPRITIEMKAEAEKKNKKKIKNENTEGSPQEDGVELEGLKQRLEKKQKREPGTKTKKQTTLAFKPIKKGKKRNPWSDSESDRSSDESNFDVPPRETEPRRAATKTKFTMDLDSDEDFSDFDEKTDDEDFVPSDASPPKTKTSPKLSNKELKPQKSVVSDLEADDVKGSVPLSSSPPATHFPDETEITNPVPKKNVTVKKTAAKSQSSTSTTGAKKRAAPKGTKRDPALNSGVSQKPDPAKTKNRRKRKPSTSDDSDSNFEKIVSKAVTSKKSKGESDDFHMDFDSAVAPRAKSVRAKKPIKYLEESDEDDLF
# MKC1: Mitogen-activated protein kinase MKC1 (MKC1, Candida albicans, UniProt P43068)
# Sequence of UniProt P43068 (whole entry, looked up): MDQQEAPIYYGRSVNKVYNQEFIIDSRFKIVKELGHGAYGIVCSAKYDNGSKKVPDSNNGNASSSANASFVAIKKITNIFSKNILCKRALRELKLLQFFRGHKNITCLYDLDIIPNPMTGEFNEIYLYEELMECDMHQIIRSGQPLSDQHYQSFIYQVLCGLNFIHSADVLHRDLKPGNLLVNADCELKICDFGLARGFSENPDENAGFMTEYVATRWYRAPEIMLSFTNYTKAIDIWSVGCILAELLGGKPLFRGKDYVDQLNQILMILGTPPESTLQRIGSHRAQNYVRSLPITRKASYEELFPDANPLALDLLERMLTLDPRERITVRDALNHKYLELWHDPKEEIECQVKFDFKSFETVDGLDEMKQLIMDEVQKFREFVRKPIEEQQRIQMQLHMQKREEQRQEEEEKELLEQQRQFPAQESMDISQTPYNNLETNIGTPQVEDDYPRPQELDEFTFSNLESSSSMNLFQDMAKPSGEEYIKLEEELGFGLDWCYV
# BEST2: Bestrophin-2a (BEST2, Homo sapiens, UniProt Q8NFU1)
# Sequence of UniProt Q8NFU1 (whole entry, looked up): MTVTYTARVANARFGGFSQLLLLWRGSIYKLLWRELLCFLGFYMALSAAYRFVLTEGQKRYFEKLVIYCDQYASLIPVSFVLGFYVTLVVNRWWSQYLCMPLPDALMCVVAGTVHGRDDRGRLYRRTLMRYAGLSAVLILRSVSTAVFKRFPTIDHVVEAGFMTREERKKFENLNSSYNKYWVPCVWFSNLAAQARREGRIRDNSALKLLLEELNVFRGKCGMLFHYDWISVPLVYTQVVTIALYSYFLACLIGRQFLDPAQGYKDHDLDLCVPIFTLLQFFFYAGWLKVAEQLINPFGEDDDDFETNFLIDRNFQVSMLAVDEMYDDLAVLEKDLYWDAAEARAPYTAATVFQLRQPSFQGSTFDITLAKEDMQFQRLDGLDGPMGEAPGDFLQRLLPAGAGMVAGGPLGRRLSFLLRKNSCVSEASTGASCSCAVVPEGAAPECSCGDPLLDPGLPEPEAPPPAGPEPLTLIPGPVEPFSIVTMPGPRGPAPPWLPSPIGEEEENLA
# CD274: Programmed cell death 1 ligand 1 (CD274, Homo sapiens, UniProt Q9NZQ7)
# Sequence of UniProt Q9NZQ7 (whole entry, looked up): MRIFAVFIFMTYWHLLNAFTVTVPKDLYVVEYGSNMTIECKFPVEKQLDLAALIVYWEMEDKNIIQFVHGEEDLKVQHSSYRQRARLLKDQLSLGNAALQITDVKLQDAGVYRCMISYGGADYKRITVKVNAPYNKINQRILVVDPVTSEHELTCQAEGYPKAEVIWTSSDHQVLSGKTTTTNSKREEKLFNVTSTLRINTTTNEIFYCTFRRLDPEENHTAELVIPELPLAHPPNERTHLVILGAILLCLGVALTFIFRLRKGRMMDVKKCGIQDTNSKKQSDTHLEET
# ATP2A2: ATP2A2 (Sus scrofa, UniProt P11607)
# Sequence of UniProt Q9EP73 (whole entry, looked up): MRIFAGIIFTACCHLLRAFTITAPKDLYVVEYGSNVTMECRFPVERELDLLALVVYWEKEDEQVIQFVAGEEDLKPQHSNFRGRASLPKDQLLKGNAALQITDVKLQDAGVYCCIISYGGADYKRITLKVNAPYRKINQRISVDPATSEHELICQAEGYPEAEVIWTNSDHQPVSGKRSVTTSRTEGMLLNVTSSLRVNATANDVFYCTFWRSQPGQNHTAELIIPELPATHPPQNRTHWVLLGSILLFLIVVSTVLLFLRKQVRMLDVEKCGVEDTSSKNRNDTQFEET
# Sequence of UniProt Q16774 (whole entry, unmodified, looked up): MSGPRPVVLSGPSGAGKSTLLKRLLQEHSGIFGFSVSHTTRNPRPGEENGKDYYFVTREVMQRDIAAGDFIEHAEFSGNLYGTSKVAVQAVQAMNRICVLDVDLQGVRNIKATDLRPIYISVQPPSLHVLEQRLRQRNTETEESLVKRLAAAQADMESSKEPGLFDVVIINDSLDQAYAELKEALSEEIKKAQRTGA
# Sequence of UniProt Q96RI1 (whole entry, looked up): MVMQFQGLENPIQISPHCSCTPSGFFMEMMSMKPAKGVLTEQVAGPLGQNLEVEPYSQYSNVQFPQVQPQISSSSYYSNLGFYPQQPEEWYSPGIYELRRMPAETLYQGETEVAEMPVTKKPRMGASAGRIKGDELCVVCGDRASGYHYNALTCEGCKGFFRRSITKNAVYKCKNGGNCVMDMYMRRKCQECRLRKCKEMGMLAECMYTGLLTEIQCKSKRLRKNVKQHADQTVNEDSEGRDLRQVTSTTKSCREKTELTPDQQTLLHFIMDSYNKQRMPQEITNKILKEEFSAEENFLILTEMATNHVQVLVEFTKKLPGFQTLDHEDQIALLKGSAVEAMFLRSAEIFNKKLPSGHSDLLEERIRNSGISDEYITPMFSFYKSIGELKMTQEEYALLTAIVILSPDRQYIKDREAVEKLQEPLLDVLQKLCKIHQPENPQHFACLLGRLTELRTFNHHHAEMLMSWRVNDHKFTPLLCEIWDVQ
# Sequence of UniProt P11607 (whole entry, looked up): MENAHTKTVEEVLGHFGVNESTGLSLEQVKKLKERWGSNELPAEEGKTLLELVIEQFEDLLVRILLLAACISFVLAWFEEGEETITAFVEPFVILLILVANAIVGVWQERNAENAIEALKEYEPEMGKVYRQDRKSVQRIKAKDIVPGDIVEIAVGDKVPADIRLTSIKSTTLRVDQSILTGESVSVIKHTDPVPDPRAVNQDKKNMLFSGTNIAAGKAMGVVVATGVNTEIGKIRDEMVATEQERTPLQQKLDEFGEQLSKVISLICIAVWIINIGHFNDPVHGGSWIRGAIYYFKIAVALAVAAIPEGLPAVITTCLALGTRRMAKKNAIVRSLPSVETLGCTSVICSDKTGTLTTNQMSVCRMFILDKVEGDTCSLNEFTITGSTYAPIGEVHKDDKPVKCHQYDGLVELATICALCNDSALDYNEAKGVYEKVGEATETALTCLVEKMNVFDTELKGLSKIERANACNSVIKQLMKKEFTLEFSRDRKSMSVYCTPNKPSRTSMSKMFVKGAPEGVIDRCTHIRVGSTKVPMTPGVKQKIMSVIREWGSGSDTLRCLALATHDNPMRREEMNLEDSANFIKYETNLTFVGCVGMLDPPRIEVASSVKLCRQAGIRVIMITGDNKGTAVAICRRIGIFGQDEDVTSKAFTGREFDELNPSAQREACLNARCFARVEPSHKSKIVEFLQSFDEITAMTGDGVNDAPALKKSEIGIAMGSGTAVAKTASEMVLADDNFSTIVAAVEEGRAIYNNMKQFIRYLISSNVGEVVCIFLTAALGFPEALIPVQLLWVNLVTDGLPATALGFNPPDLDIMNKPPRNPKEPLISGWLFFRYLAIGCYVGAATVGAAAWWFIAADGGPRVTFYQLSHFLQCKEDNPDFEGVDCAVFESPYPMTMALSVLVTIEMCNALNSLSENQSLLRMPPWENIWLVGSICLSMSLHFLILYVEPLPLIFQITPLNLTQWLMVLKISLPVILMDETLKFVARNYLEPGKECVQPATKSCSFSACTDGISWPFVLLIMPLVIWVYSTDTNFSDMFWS
Structure (SMILES),target,assay,system,setting,scale,measurement,result
O=c1nc(SCc2cc(F)cc(C(F)(F)F)c2)nc(SCc2cccc(C(F)(F)F)c2)[nH]1,TOP2A,decatenation,,7.8 µM,,mean decatenated DNA,95.4%
Oc1ccccc1-c1n[nH]cc1-c1ccnc2ccccc12,MKC1,"kinase binding, MIB/MS competition",Candida albicans lysate,10 µM,"baseline: DMSO, negative = stronger binding",log2 fold change,0.27
CC[C@@H](C)[C@@H](NC(=O)[C@@H](Cc1ccc(O)cc1)NC(=O)[C@H]1CCCN1C(=O)[C@@H](CCCNC(=N)N)NC(=O)[C@H](N)Cc1c[nH]cn1)C(=O)N[C@H](C)C(=O)N[C@H](Cc1c[nH]cn1)C(=O)N[C@H](CCCNC(=N)N)C(=O)N[C@@H](C(=O)N[C@H](Cc1ccc(O)cc1)C(=O)N[C@H](CO)C(=O)N[C@H](Cc1ccccc1)C(N)=O)C(C)C,"Programmed cell death 1 ligand 1, with PD-1 (Cd274, Mus musculus, UniProt Q9EP73)",PD-1-Fc binding,HEK293T-mPD-L1,"concentration not given, 48 h",,PD-L1 blocking rate,8.62% and 12.7% and 8.58%
N[C@@H](CCC(=O)O)C(=O)O,BEST2,whole-cell patch clamp,HEK293 transfected,"concentration not given, compound external permeant anion, at 100 mV",,current density,57 pA/pF and 38.7 pA/pF and 56.6 pA/pF and 51.3 pA/pF and 41.7 pA/pF
CC(C)c1cccc2c(-c3ccccc3)cc(/C=C/c3ccc(C(=O)O)cc3)nc12,"RARB (Homo sapiens, UniProt P10826)","reporter gene, antagonist",,"up to 3300 nM, together with: ATRA 4 nM (EC80)",,IC50,inactive
CCCCC/C=C\C/C=C\C/C=C\C/C=C\CCCC(=O)O,human COX-2-PGIS fusion enzyme,"conversion to PGI2, substrate",Sf9 membrane fraction,,,Km,~3 µM
Nc1nc2c(ncn2[C@@H]2O[C@H](COP(=O)(O)O)[C@@H](O)[C@H]2O)c(=O)[nH]1,"GUK1 (Homo sapiens, UniProt Q16774, Y53A)","enzyme activity, NADH-coupled",,500 µM,,reaction rate,3.75 s⁻¹ and 5.18 s⁻¹ and 4.14 s⁻¹
Nc1ncnc2c1ncn2[C@@H]1O[C@H](COP(=O)(O)CP(=O)(O)OP(=O)(O)O)[C@@H](O)[C@H]1O,"P2X purinoceptor 1 (P2RX1, Homo sapiens, UniProt P51575, F188L)",saturation binding,HEK293,130 nM,,specific binding,6760 CCPM
Cc1ccc(NC2=CC(=O)N(C3CCC(=O)NC3=O)C2=O)cc1C(C)(C)NCCc1ccc(C(F)(F)F)c(Cl)c1 (centres unmarked),"Cereblon/Ikaros (Homo sapiens, UniProt Q13422+Q96SW2)","protein degradation, degrader, HiBiT luminescence",Jurkat,,,Dmax,84%
COc1nc(-c2cccc(-c3ccccc3)c2C)ccc1CNCCCCCCCCCCC(=O)N(C)CCCC12CCC(c3ccccc31)c1ccccc12,CD274,"degrader, western blot",HL-60,1 µM,,degradation,31.5 ± 1.9%
CC(C)c1ccc(CSc2nc(SCc3ccc4sccc4c3)[nH]c(=O)n2)cc1,TOP2A,decatenation,,31.25 µM,,mean decatenated DNA,0%
CC1(C)C(/C=C/C=C2/N(CCCc3ccccc3)c3ccc(Cl)cc3C2(C)C)=[N+](CCCc2ccccc2)c2ccc(Cl)cc21.[Br-],"PRMT6 (Homo sapiens, UniProt Q96LA8)","inhibitor, filter binding",,together with: R4 peptide substrate,,Hill coefficient,4.96
O=C(O)c1ccc(O)cc1,BEST2,whole-cell patch clamp,HEK293 transiently expressing channel,"concentration not given, membrane potential -40 mV",,current density,-130 pA/pF and -68 pA/pF and -98.3 pA/pF and -47.6 pA/pF and -104 pA/pF and -52.4 pA/pF and -99.2 pA/pF
N#C/C(=C\c1ccc(O)c(O)c1)C(N)=S,"TGM2 (Homo sapiens, UniProt P21980)","enzyme activity, inhibitor",,"concentration not given, reversibility, without calcium",,inhibition after dialysis,> 90%
O=c1nc(SCc2cc(F)cc(C(F)(F)F)c2)nc(SCc2ccc3nc(Cl)ccc3c2)[nH]1,TOP2A,DNA cleavage,,"125 µM, replicate 2",,linear DNA,3.73%
O=c1cc(-c2ccc(OS(=O)(=O)[O-])cc2)oc2cc(OS(=O)(=O)[O-])cc(OCc3cccc(COc4cc(OS(=O)(=O)[O-])cc5oc(-c6ccc(OS(=O)(=O)[O-])cc6)cc(=O)c45)n3)c12.[Na+].[Na+].[Na+].[Na+],"Neutrophil elastase (ELANE, Homo sapiens, UniProt P08246)","elastin cleavage, inhibitor, elastin-Congo red",,concentration not given,,duration of full inhibition,> 48 h
CCN1CCC[C@H]1CNC(=O)c1c(O)c(Cl)cc(Cl)c1OC,"HCAR3 (Homo sapiens, UniProt P49019)","β-arrestin recruitment, TANGO luminescence, item: GPR109B",,concentration not given,baseline: basal luminescence,log2 fold change,-0.582
CC(=C/C(=O)O)/C=C/C=C(\C)C1C=C2C(C)(C)CCCC2(C)O1 (centres unmarked),"Rhodopsin (RHO, Homo sapiens, UniProt P08100, E181K)","immunostaining, item: opsin",COS-7 transfected,"30.00 µM, unit not given",baseline: surface over total stained cells,plasma membrane localization,0.94
O=C(O)C1CCCNC1 (centres unmarked),"SLC6A6 (Homo sapiens, UniProt P31641, Y138A)","binding, microscale thermophoresis",,"43.2 nM, fitted curve",higher = more binding,fraction bound,0.00214
O=c1nc(SCc2cc(F)cc(C(F)(F)F)c2)nc(SCc2ccc3sccc3c2)[nH]1,TOP2A,ATPase activity,,"15.6 µM, together with: ATP 0.1 mM",,ATP hydrolysis rate,0.705 µM/min and 0.519 µM/min
NS(=O)(=O)C(F)(F)F,"CA4 (Homo sapiens, UniProt P22748)",ITC,,"concentration not given, 25 °C",,intrinsic binding ΔH,-5.14 kcal/mol
[Cl-].[Na+],"GUK1 (Homo sapiens, UniProt Q16774)","enzyme activity, 1H NMR",,,,equilibrium GDP/GMP ratio,0.385 and 0.355 and 0.493
NC(=O)c1ccc[n+]([C@@H]2O[C@H](COP(=O)([O-])OP(=O)(O)OC[C@H]3O[C@@H](n4cnc5c(NCCNC(=O)CCCCCNC(=O)CCCCCNC(=O)CCCC[C@@H]6SC[C@@H]7NC(=O)N[C@@H]76)ncnc54)[C@H](O)[C@@H]3O)[C@@H](O)[C@H]2O)c1,"PARP10 (Homo sapiens, UniProt Q53GL7)","substrate, DELFIA auto-modification",,,,apparent Km,3 µM
c1ccc(CCCCCOCCc2ccc3[nH]nnc3c2)cc1,ATP2A2,"ATPase activity, inhibitor",pig microsomes,concentration not given,baseline: vehicle,reduction in Vmax,~87%
C=CC(=O)N1CCC(COCC(=O)N2CCN(c3nc(-c4cnc(N)nc4C(F)F)nc(N4CCOC[C@@H]4C)n3)CC2)CC1,"RPS6KB1 (Homo sapiens, UniProt P23443)",KINOMEscan,,1 µM,,remaining binding,100%
COc1ccc(C(=O)/C=C/c2cccc(-c3cccc(-c4ccc(CNC[C@@H]5CCC(=O)N5)c(OC)n4)c3C)c2)cc1,CD274,"degrader, western blot",HL-60,1 µM,,degradation,< 5%
C=CC(=O)N1CCC[C@@H](n2nc(-c3ccc(Oc4ccccc4)cc3)c3c(N)ncnc32)C1,"MAP4K3 (Homo sapiens, UniProt Q8IVH8)",,,10 µM,,remaining activity,62%
Cc1n[nH]c2ccc(-c3cc(OC[C@@H](N)Cc4ccccc4)cnc3-c3ccoc3)cc12,MKC1,"kinase binding, competitor, MIB/MS competition, item: MKC1",Candida albicans cell lysate,1 µM,baseline: DMSO,log2 fold change,0.0129
Cc1cccc(N2CC(C(=O)O)CC2=O)c1 (centres unmarked),"DNA (cytosine-5)-methyltransferase 3A, PWWP domain (DNMT3A, Homo sapiens, UniProt Q9Y6K1)","binding, affinity selection mass spectrometry",,,baseline: other proteins in batch,log fold enrichment,0.0464
Nc1ncnc2c1ncn2[C@@H]1O[C@H](CO[P@](=O)(O)O[P@](=O)(O)O[P@@](=O)(O)S)[C@@H](O)[C@H]1O,"uncharacterized protein (Thermomonospora curvata, UniProt D1ABX1)",ITC,,"500 µM, pH 7.5, 25 °C",,binding stoichiometry,1.2 ± 0.3 sites
c1ccc(CCCCCOCCc2ccc3[nH]cc(C4CCCC4)c3c2)cc1,ATP2A2,"ATPase Vmax increase, activator",pig microsomes,0.1 to 50 µM,baseline: vehicle,Emax,19 to 25%
O=c1ccc2nc3ccc(O[C@@H]4O[C@H](CO)[C@@H](O)[C@H](O)[C@H]4O)cc3oc-2c1,"GBA1 (Homo sapiens, UniProt P04062, R534H)",substrate,,5 nM enzyme,,Vmax,42 pmol/min
CC[S+]([O-])c1nc(-c2ccccc2)cc(C(F)(F)F)n1 (centres unmarked),"KPNB1 (Homo sapiens, UniProt Q14974, C585A)",thermal shift,,"30 µM, 2 h",,Tm2,50.4 °C
CCC1(O)CCCN(C(=O)c2ccc(-c3ccc(F)c(NC(=O)CCl)c3)cc2)C1 (centres unmarked),"DNA dC->dU-editing enzyme APOBEC-3B, C-terminal domain (Homo sapiens, UniProt Q9UH17)","covalent modifier, intact protein mass spectrometry, item: adduct +25721 Da",,"25 µM, 3 h, 1-fold molar excess",,protein adduct,51.5%
Nc1nc2c(ncn2[C@@H]2O[C@@H]3COP(=O)(O)O[C@H]3[C@H]2O)c(=O)[nH]1,"Cone cGMP-gated channel (Morone saxatilis, UniProt Q3I0N1+Q3I0N2)","channel current, agonist, suction electrode",cone outer segments,together with: 20 µM Ca2+,,Hill coefficient,2.11 ± 0.49
Cc1nc(CSc2nc(SCc3ccc(C(F)(F)F)cc3)nc(=O)[nH]2)cs1,TOP2A,decatenation,,"15.6 µM, replicate 2",,decatenated DNA,88.9%
O=C(O)c1ccc(-c2c[nH]c3ncc(-c4ccccc4)cc23)cc1C1CCCC1,"PKN1 (Homo sapiens, UniProt Q16512)",inhibitor,,,,Hill slope,-0.831
COC(=O)c1cn(C)c2ccc(-c3cccnc3)cc12,"Bile acid receptor (NR1H4, Homo sapiens, UniProt Q96RI1)","reporter gene, Gal4 hybrid reporter",,10 µM,baseline: vehicle,activation,0.81 fold
CCOc1cccc(C2CC(=O)Nc3c2c(C)nn3-c2ccc3nncn3n2)c1 (centres unmarked),"DDB1 (Homo sapiens, UniProt Q16531)","binding, surface plasmon resonance",,3.75 µM,,SPR response,3.79 RU
COc1ccc(F)cc1C(=O)NCc1ccc(-c2nn([C@@H](C)C(F)(F)F)c(N)c2C(N)=O)cc1,"BTK (Homo sapiens, UniProt Q06187)",differential scanning fluorimetry,,together with: BTK inhibitor 100 µM,,second melting temperature,54 °C
Nc1ncnc2c1ncn2[C@@H]1O[C@H](C[C@@H](N)CC[C@H](N)C(=O)O)[C@@H](O)[C@H]1O,"O-methyltransferase (Sorghum bicolor, UniProt A0A1B6PFV1)",biolayer interferometry,,together with: saturating PTR,,cooperativity factor σ,0.4
